Experimental data from different studies.
Lines come from different studies, so protocols differ. Numbers after ± are the reported error.

CCCCn1cc(C(=O)O)c(=O)c2cc(F)c(Nc3ccccc3Cl)c(N)c21  IC50 (SW480; cell growth, SRB; 72 h): 32.1 ± 3.81 µg/mL
CC[C@H](C)[C@H](N)C1=N[C@H](C(=O)N[C@@H](CC(C)C)C(=O)N[C@H](CCC(=O)O)C(=O)N[C@@H](Cc2ccccc2)C(=O)N[C@H]2CCCCNC(=O)[C@H](CC(N)=O)NC(=O)[C@@H](CC(=O)O)NC(=O)[C@H](Cc3c[nH]cn3)NC(=O)[C@@H](Cc3ccccc3)NC(=O)[C@H]([C@@H](C)CC)NC(=O)[C@@H](CCCN)NC2=O)CS1  hemolysis (sheep red blood cells; 128 µg/mL, 20 h, 37 °C; relative to: Triton X-100 0.1%): 0%
CCCCn1cc(C(=O)O)c(=O)c2cc(F)c(Nc3ccccc3Cl)c([N+](=O)[O-])c21  IC50 (SW480; cell growth, SRB; 72 h): 123 ± 18.4 µg/mL
CCCCCCCCCCCCCCCC(=O)OCC(CSC[C@H](N)C(=O)N[C@@H](CO)C(=O)N[C@@H](CCCCN)C(=O)N[C@@H](CCCCN)C(=O)N[C@@H](CCCCN)C(=O)N[C@@H](CCCCN)C(=O)NCCCCCC(=O)N[C@@H](CCCCN)C(=O)N[C@@H](CC(C)C)C(=O)N[C@H](C(=O)N[C@@H](Cc1ccccc1)C(=O)N[C@@H](Cc1ccccc1)C(=O)N[C@@H](Cc1ccc2ccccc2c1)C(=O)O)C(C)C)OC(=O)CCCCCCCCCCCCCCC (stereo partly shown)  mRNA level (BV-2; RT-qPCR, refers to: iNOS; 1.0 µM): increased
CN1CC23C4C=CC5C4C4C2C=CC4C53C1  CC50 (dog cells; cytotoxicity; 3 (unit not given)): ≥ 74 µM
C[C@@H]1NC(=O)CN(C(=O)c2ccccn2)CCCC[C@@H](C(N)=O)NC(=O)[C@@H]2CCCN2C(=O)[C@H](CCC(=O)NCCOCCOCCCCCCCl)NC(=O)[C@H](Cc2ccccc2)NC1=O  CP50 (HaloTag-expressing cells; cell permeability): 67.6 µM
N=C(N)N1CC23C4C5CC5C5C4C4C2C2CC2C4C53C1 (stereo not shown)  CC50 (dog cells; cytotoxicity; 3 (unit not given)): ≥ 35 µM
CCCCn1cc(C(=O)O)c(=O)c2cc(F)c(Nc3cccc(Cl)c3)c([N+](=O)[O-])c21  IC50 (HT-29; cell growth, SRB; 72 h): 25.5 ± 0.54 µg/mL
C#CC[C@H](NC(=O)CNC(=O)[C@H](CO)NC(=O)[C@@H]1CCCCNC(=O)CCCC(=O)N[C@@H](CCSC)C(=O)N[C@@H](Cc2c[nH]c3ccccc23)C(=O)N2CCC[C@H]2C(=O)N[C@@H](Cc2c[nH]cn2)C(=O)N[C@@H](CCCNC(=N)N)C(=O)N[C@@H](C(C)C)C(=O)N[C@@H]([C@@H](C)O)C(=O)N[C@@H](C)C(=O)N(C)[C@@H](C)C(=O)N1)C(=O)O  cytosolic access ratio (HeLa HaloTag-GFP-Mito; chloroalkane penetration; 4 h; relative to: compound over non-N-methylated variant): ~3 fold
CCCCn1cc(C(=O)O)c(=O)c2cc(F)c3c(nnn3-c3ccccc3Cl)c21  IC50 (SW480; cell growth or viability, SRB): 688 µM
CC(C)C(N)C(=O)NC(C(=O)OCC(=O)C1(O)CCC2C3CCC4=CC(=O)C=CC4(C)C3C(O)CC21C)C(C)C (stereo not shown)  LDH release (MDCK wild type; absorbance; 250 µM, 4 h; relative to: negative control): ~2 fold
Clc1cc2oc3cc(Cl)c(Cl)c(Cl)c3c2cc1Cl  mass balance (Caco-2 monolayer; GC-HRMS; gut-on-a-chip; 0.2 ng/mL, 24 h, 1% DMSO): 88 ± 5%
Cc1c(Br)cnc2c1NC(=O)c1cccnc1N2C1CC1  mRNA fold change (pooled primary human hepatocytes; inducer, qPCR, refers to: CYP2B6; 25 µM, 72 h; relative to: DMSO): 25 fold
COc1ccc(S(=O)(=O)N(CC(=O)O)c2c(C)c(C)c(N(CC(=O)O)S(=O)(=O)c3cccnc3)c(C)c2C)cc1  viability (H9c2; MTS; DMEM with 10% FBS; up to 50 µM, 24 h): > 80%
CCCCn1cc(C(=O)O)c(=O)c2cc(F)c(Nc3cccc(Cl)c3)c(N)c21  IC50 (SW480; cell growth, SRB; 72 h): 28.4 ± 1.98 µg/mL
CC(C)[C@@H]1NC(=O)CNC(=O)[C@H](CC(N)=O)NC(=O)[C@H](CCCNC(=N)N)NC(=O)[C@H](Cc2ccc(O)cc2)NC(=O)[C@H](C(C)C)NC(=O)[C@@H](NC(=O)[C@@H](NC(=O)[C@H](CC(N)=O)NC(=O)[C@H](Cc2c[nH]c3ccccc23)NC(=O)[C@H](C)NC(=O)[C@H](Cc2ccccc2)NC(=O)CNC(=O)[C@H](CCCCN)NC(=O)[C@H](Cc2ccccc2)NC(=O)[C@H](Cc2ccccc2)NC(=O)[C@H](CCCCN)NC(=O)OCC2c3ccccc3-c3ccccc32)C(C)C)CSSC[C@@H](C(=O)N[C@@H](Cc2c[nH]cn2)C(=O)N[C@@H](CCCNC(=N)N)C(=O)N[C@@H](CCCNC(=N)N)C(=O)N[C@@H](C)C(=O)N[C@@H](CC(N)=O)C(N)=O)NC(=O)[C@H](C(C)C)NC(=O)[C@H](CCCNC(=N)N)NC1=O  viability (MAC-T; CCK-8; up to 128 µM, 12 h): > 90%
CN1CC23C4C5CC5C5C4C4C2C2CC2C4C53C1 (stereo not shown)  CC50 (dog cells; cytotoxicity; 3 (unit not given)): ≥ 20 µM
Clc1cc2oc3c(Cl)c(Cl)c(Cl)cc3c2cc1Cl  mass balance (Caco-2 monolayer; GC-HRMS; static Transwell; 0.2 ng/mL, 24 h, 1% DMSO, congener mixture): 82 ± 2%
O=C1Nc2ccccc2C1=NN=Cc1ccc(F)cc1  cytotoxic concentration (HUVEC; MTT; 24 and 48 h, 50% cell death): 50 to 500 µg/mL
CC[C@@H](CC(=O)N[C@@H](CCCNC(=N)N)CC(=O)N[C@H](CC(=O)N[C@@H](CC)CC(=O)N[C@@H](CCCNC(=N)N)CC(=O)N[C@H](CC(=O)N[C@@H](CC)CC(=O)N[C@@H](CCCNC(=N)N)CC(N)=O)[C@@H](C)CC)[C@@H](C)CC)NC(=O)C[C@@H](N)[C@@H](C)CC  haemolysis (human erythrocytes; antifungal MIC, 1 h, 37 °C; relative to: melittin): 4.5 ± 3.2%
CC[C@@H](C)[C@@H](NC(=O)[C@@H](C)NC(=O)[C@@H](CCCCN)NC(=O)[C@@H](CC(C)C)NC(=O)[C@@H](C)NC(=O)[C@H](NC(=O)[C@@H](Cc1c[nH]cn1)NC(=O)[C@@H](CC(C)C)NC(=O)[C@H](NC(=O)[C@H](NC(=O)[C@@H](CCCCN)NC(=O)[C@@H](CCCCN)NC(=O)[C@@H](C)NC(=O)[C@@H](CO)NC(=O)[C@@H](CCCCN)NC(=O)[C@@H](Cc1ccccc1)NC(=O)[C@H](NC(=O)[C@@H](CCCCN)NC(=O)[C@@H](CC(C)C)NC(=O)[C@@H](Cc1ccccc1)NC(=O)[C@@H](CO)NC(=O)[C@@H](CCCCN)NC(=O)[C@@H](Cc1c[nH]c2ccccc12)NC(=O)[C@@H](CCCCN)NC(C)=O)[C@H](C)O)[C@H](C)O)C(C)C)[C@H](C)O)C(=O)N[C@H](CO)C(=O)N[C@H](CO)C(N)=O  HC50 (human erythrocytes; hemolysis; 1% erythrocytes, 18 h, pH 7.4, 37 °C): 1000 µg/mL
CCCCCCCCCCCCCC(=O)N[C@@H](CCCCN)C(=O)N[C@@H](CCCCN)C(N)=O  cell death (HeLa CCL-2; MTS; 50 µM): 50%
C#CC[C@H](NC(=O)CNC(=O)[C@H](CO)NC(=O)[C@H](CCCCN)NC(=O)[C@H](C)N(C)C(=O)[C@H](C)NC(=O)[C@@H](NC(=O)[C@@H](NC(=O)[C@H](CCCNC(=N)N)NC(=O)[C@H](Cc1c[nH]cn1)NC(=O)[C@@H]1CCCN1C(=O)[C@H](Cc1c[nH]c2ccccc12)NC(=O)[C@@H](N)CCSC)C(C)C)[C@@H](C)O)C(=O)O  CP50 (HeLa HaloTag-GFP-Mito; cell penetration, chloroalkane penetration; 24 h): 1.19 ± 0.16 µM
CC(C)C[C@H](NC(=O)[C@H](CCCNC(=N)N)NC(=O)[C@H](Cc1ccccc1)NC(=O)[C@H](Cc1ccccc1)NC(=O)[C@@H](NC(=O)[C@H](CO)NC(=O)[C@H](CO)NC(=O)[C@H](CC(=O)O)NC(=O)[C@H](CO)NC(=O)[C@H](CO)NC(=O)[C@H](CC(=O)O)NC(=O)[C@H](CO)NC(=O)[C@H](CO)NC(=O)[C@H](CC(=O)O)NC(=O)[C@H](CO)NC(=O)[C@H](CO)NC(=O)[C@H](CC(=O)O)NC(=O)[C@H](CO)NC(=O)[C@H](CO)NC(=O)[C@H](CC(=O)O)NC(=O)[C@H](CO)NC(=O)[C@H](CO)NC(=O)[C@H](CC(=O)O)NC(=O)[C@H](CO)NC(=O)[C@H](CO)NC(=O)[C@H](CC(=O)O)NC(=O)[C@H](CO)NC(=O)[C@H](CO)NC(=O)[C@@H](N)CC(=O)O)[C@@H](C)O)C(=O)N[C@@H](Cc1ccccc1)C(=O)N[C@@H](CC(N)=O)C(=O)N[C@@H](CCCNC(=N)N)C(=O)N[C@@H](C)C(=O)N[C@@H](CCCCN)C(=O)N[C@@H](CCCNC(=N)N)C(=O)N[C@@H](Cc1c[nH]cn1)C(=O)N[C@@H](Cc1c[nH]cn1)C(=O)NCC(=O)N[C@@H](Cc1ccc(O)cc1)C(=O)N[C@@H](CCCCN)C(=O)N[C@@H](CCCNC(=N)N)C(=O)N[C@@H](CCCCN)C(=O)N[C@@H](Cc1ccccc1)C(=O)N[C@@H](Cc1c[nH]cn1)C(=O)O  cell viability (MC3T3-E1; CCK-8; up to 2 × MBC, 24 h; relative to: untreated): no effect
O=C(NCc1cccc(F)c1F)c1cn(Cc2ccc(F)cc2)cc(O)c1=O  CC50 (HFF; cell growth or viability, MTS; 7 days): 13 µM
CC(=N)N1CC23C4CCC5C4C4C2CCC4C53C1  CC50 (dog cells; cytotoxicity; 3 (unit not given)): > 100 µM
CC[C@@H](C)[C@H]1NC(=O)[C@H]([C@@H](C)CC)NC(=O)[C@@H](CCCN)NC(=O)[C@@H](NC(=O)[C@@H](NC(=O)[C@@H](CCC(=O)O)NC(=O)[C@H](CC(C)C)NC(=O)[C@@H]2CSC([C@@H](N)[C@@H](C)CC)=N2)[C@@H](C)CC)CCCCNC(=O)[C@H](CC(N)=O)NC(=O)[C@@H](CC(=O)O)NC(=O)[C@H](Cc2c[nH]cn2)NC1=O  hemolysis (sheep red blood cells; 128 µg/mL, 20 h, 37 °C; relative to: Triton X-100 0.1%): 0%
Clc1cc2c(cc1Cl)Oc1c(cc(Cl)c(Cl)c1Cl)O2  mass balance (Caco-2 monolayer; GC-HRMS; gut-on-a-chip; 0.2 ng/mL, 24 h, 1% DMSO): 92 ± 6%
CCN(CCCCOc1ccc(CCC(=O)N2CCC(Cc3ccccc3)CC2)cc1OC)Cc1ccccc1  efflux ratio (Caco-2 monolayer; 120 min, over tested concentrations): > 1.2
NC12C3CCC4C3C3C(CCC31)C42  CC50 (dog cells; cytotoxicity; 3 (unit not given)): > 100 µM
CC[C@@H](C)[C@H](NC(=O)[C@H](C)NC(=O)[C@H](CCCCN)NC(=O)[C@H](CC(C)C)NC(=O)[C@H](C)NC(=O)[C@@H](NC(=O)[C@H](Cc1c[nH]cn1)NC(=O)[C@H](CC(C)C)NC(=O)[C@@H](NC(=O)[C@@H](NC(=O)[C@H](CCCCN)NC(=O)[C@H](CCCCN)NC(=O)[C@H](C)NC(=O)[C@H](CO)NC(=O)[C@H](CCCCN)NC(=O)[C@H](Cc1ccccc1)NC(=O)[C@@H](NC(=O)[C@H](CCCCN)NC(=O)[C@H](CC(C)C)NC(=O)[C@H](Cc1ccccc1)NC(=O)[C@H](CO)NC(=O)[C@H](CCCCN)NC(=O)[C@H](Cc1c[nH]c2ccccc12)NC(=O)[C@H](CCCCN)NC(C)=O)[C@@H](C)O)[C@@H](C)O)C(C)C)[C@@H](C)O)C(=O)N[C@@H](CO)C(=O)N[C@@H](CO)C(N)=O  minimal haemolytic concentration (human erythrocytes; 1 h, 37 °C): 500 µg/mL
NC(Cc1cc(O)c(O)cc1O)C(=O)O (racemic)  CC50 (Huh-7, mock-infected; MTS; 4 (unit not given)): 30 ± 1.8 µM
Clc1c(Cl)c(Cl)c2c(c1Cl)Oc1c(Cl)c(Cl)c(Cl)c(Cl)c1O2  cellular fraction (Caco-2 monolayer; static Transwell; 0.2 ng/mL, 24 h, 1% DMSO; relative to: exposure): 51.8%
CCCCCCCCCCCCCC(=O)Nc1ccccc1SSc1ccccc1NC(=O)CCCCCCCCCCCCC  cytotoxicity (HaCaT; MTT; up to 10 mg/mL): not toxic

A few entries again:
Cc1c(Br)cnc2c1NC(=O)c1cccnc1N2C1CC1  mRNA fold change (pooled primary human hepatocytes; inducer, qPCR, refers to: CYP2B6; 25 µM, 72 h; relative to: DMSO): 25 fold
COc1ccc(S(=O)(=O)N(CC(=O)O)c2c(C)c(C)c(N(CC(=O)O)S(=O)(=O)c3cccnc3)c(C)c2C)cc1  viability (H9c2; MTS; DMEM with 10% FBS; up to 50 µM, 24 h): > 80%
CCCCn1cc(C(=O)O)c(=O)c2cc(F)c(Nc3cccc(Cl)c3)c(N)c21  IC50 (SW480; cell growth, SRB; 72 h): 28.4 ± 1.98 µg/mL
CC(C)[C@@H]1NC(=O)CNC(=O)[C@H](CC(N)=O)NC(=O)[C@H](CCCNC(=N)N)NC(=O)[C@H](Cc2ccc(O)cc2)NC(=O)[C@H](C(C)C)NC(=O)[C@@H](NC(=O)[C@@H](NC(=O)[C@H](CC(N)=O)NC(=O)[C@H](Cc2c[nH]c3ccccc23)NC(=O)[C@H](C)NC(=O)[C@H](Cc2ccccc2)NC(=O)CNC(=O)[C@H](CCCCN)NC(=O)[C@H](Cc2ccccc2)NC(=O)[C@H](Cc2ccccc2)NC(=O)[C@H](CCCCN)NC(=O)OCC2c3ccccc3-c3ccccc32)C(C)C)CSSC[C@@H](C(=O)N[C@@H](Cc2c[nH]cn2)C(=O)N[C@@H](CCCNC(=N)N)C(=O)N[C@@H](CCCNC(=N)N)C(=O)N[C@@H](C)C(=O)N[C@@H](CC(N)=O)C(N)=O)NC(=O)[C@H](C(C)C)NC(=O)[C@H](CCCNC(=N)N)NC1=O  viability (MAC-T; CCK-8; up to 128 µM, 12 h): > 90%
